Measurements gathered from unrelated publications.
Lines come from different studies, so protocols differ. ± gives the spread as reported.

C=C(CC)C(=O)c1ccc(OCC(=O)NCCCCNC(=O)COc2ccc(C(=O)C(=C)CC)c(Cl)c2Cl)c(Cl)c1Cl — inhibition (glutathione S-transferase, human; enzyme activity; A549 cell lysate; 0.2 µM): ~70%
CC(=O)N[C@@H](CC(N)=O)C(=O)NCC(=O)N[C@@H](CCCNC(=N)N)C(=O)N[C@@H](C)C(N)=O — rate constant k1 (Asn-Gly peptide isomerisation to succinimide; 1H NMR time course; pH 7.4, 28 °C): 0.0079 h⁻¹
COc1cc(CNC(=O)C[C@H](C)CCC=C(C)C)ccc1OCc1cn(-c2ccccc2[N+](=O)[O-])nn1 — growth (A549/ATCC; SRB; 10 µM, 48 h): 65.7%
CCCCC/C=C/C(=O)CCc1ccc(O)c(OC)c1 — IC50 (mAb 6-AT6; antibody binding, indirect competitive ELISA; added: coating antigen 6-OVA): > 4 µg/mL
COc1ccc(S(=O)(=O)NCc2c[nH]nc2-c2cccs2)cc1 — parasitemia (Plasmodium vivax; reinvasion; 2, human, human red blood cells; 3× EC50, 20 h): 0%
O=Cc1c(O)ccc2ccccc12 — log2 fold change (HUVEC; RNA sequencing, item: CDCA7; 75 µM, 24 h; reference: DMSO): -2.91
C=C(CC)C(=O)c1ccc(OCC(=O)NCCNC(=O)COc2ccc(C(=O)C(=C)CC)c(Cl)c2Cl)c(Cl)c1Cl — inhibition (glutathione S-transferase, human; enzyme activity; CoC1 cell lysate; 0.2 µM): ~25%
COc1cc(CNC(=O)C[C@H](C)CCC=C(C)C)ccc1OCc1cn(-c2ccc(C#N)cc2)nn1 — growth percent (MCF7 breast cancer cells; SRB; 10 µM, 48 h): 42.3%
Cc1nn(-c2ccc(S(=O)(=O)N[C@@H](CO)CC(C)C)cc2)c2nn3nnnc3nc12 — apoptotic cells (PC-3; PI/Hoechst staining; 2 µM, 24 h): 13 ± 1.4%
COc1cc(CNC(=O)C[C@H](C)CCC=C(C)C)ccc1OCc1cn(-c2ccccc2Cl)nn1 — growth percent (MCF7 breast cancer cells; SRB; 10 µM, 48 h): 40.6%
COc1ccc(CC2COC(=O)C2Cc2ccc3c(c2)OCO3)cc1OC (mixture of isomers) — protein level (A2780cis; western blot, item: PUMA; IC50, 48 h; reference: 0 h): increased
COc1cc(CNC(=O)C[C@H](C)CCC=C(C)C)ccc1OCc1cn(-c2ccccc2)nn1 — growth (A549/ATCC; SRB; 10 µM, 48 h): 94.1%
CC(=O)N[C@@H](CC(N)=O)C(=O)NCC(=O)N[C@@H](C)C(=O)N[C@@H](C)C(N)=O — rate constant k1 (Asn-Gly peptide isomerisation to succinimide; 1H NMR time course; pH 6.3, 55 °C): 0.0235 h⁻¹

A few entries again:
COc1cc(CNC(=O)C[C@H](C)CCC=C(C)C)ccc1OCc1cn(-c2ccccc2)nn1 — growth (A549/ATCC; SRB; 10 µM, 48 h): 94.1%
